Measurements gathered from unrelated publications.
Every numbered part comes from another study and shows a few of its results, in no order.

Sample 1
Target: Sox, HMG box (Pigoraptor chileana)
Method: Spec-seq
Molecule type: double-stranded DNA, one strand shown
Medium: in vitro
Tested at: not given
Setting: whole probe, mean of replicates
Baseline: not given
Direction: lower = stronger binding
Target sequence (chain): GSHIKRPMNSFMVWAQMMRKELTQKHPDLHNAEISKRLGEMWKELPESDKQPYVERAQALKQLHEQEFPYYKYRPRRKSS
Oligonucleotide | relative binding energy [ln ratio]
GAGTCGTCTCGTCAGCACATAGGTTCCGTAGAGCACTCAGGTC | 0.125
GAGTCGTCTCGTCAGCACTGTGGTTCCGTAGAGCACTCAGGTC | 0.0845
GAGTCGTCTCGTCAGCACCATAGCGCCGTAGAGCACTCAGGTC | -0.262

Sample 2
Target: Centromere-binding protein 1, full length, His-tagged (CBF1, Saccharomyces cerevisiae, UniProt P17106, residues 1-351)
Sequence of UniProt P17106 (whole entry, looked up): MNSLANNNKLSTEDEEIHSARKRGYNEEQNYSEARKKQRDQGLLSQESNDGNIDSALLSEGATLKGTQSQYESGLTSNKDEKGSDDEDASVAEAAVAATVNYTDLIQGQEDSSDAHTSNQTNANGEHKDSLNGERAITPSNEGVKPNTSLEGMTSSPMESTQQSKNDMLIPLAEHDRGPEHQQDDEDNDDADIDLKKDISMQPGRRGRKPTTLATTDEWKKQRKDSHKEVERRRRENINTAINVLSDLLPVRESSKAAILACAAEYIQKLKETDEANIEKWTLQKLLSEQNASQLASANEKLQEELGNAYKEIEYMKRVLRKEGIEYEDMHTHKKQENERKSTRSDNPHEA
Method: competition protein-binding microarray
Molecule type: double-stranded DNA, one strand shown
Medium: in vitro
Tested at: 2 µM
Setting: whole 60-bp probe, lowest competitor level
Together with: Pho4 competitor, 0.05 µM
Direction: higher = stronger binding
Oligonucleotide | fluorescence intensity [a.u.]
CGGGGTTAAGTTTCGCACGTGTTTTGCTTGCAGCAGGTCTTGATTCGCTTGACGCTGCTG | 846
GTTTCAGAAAATCCATGTCATTAAAGAGCTTTATCAGTCTTGATTCGCTTGACGCTGCTG | 67.7
CGCCAAAGTTCTTGCCTCGTGGTCGTTGGCCTTCGCGTCTTGATTCGCTTGACGCTGCTG | 107
GTGGCAGGAGGGTTTCTATTTAGTGTTCGGTAAAGGGTCTTGATTCGCTTGACGCTGCTG | 79.3

Sample 3
Target: Sal-like protein 4, full length isoform A (SALL4, Homo sapiens, UniProt Q9UJQ4, residues 1-1053)
Sequence of UniProt Q9UJQ4 (whole entry, looked up): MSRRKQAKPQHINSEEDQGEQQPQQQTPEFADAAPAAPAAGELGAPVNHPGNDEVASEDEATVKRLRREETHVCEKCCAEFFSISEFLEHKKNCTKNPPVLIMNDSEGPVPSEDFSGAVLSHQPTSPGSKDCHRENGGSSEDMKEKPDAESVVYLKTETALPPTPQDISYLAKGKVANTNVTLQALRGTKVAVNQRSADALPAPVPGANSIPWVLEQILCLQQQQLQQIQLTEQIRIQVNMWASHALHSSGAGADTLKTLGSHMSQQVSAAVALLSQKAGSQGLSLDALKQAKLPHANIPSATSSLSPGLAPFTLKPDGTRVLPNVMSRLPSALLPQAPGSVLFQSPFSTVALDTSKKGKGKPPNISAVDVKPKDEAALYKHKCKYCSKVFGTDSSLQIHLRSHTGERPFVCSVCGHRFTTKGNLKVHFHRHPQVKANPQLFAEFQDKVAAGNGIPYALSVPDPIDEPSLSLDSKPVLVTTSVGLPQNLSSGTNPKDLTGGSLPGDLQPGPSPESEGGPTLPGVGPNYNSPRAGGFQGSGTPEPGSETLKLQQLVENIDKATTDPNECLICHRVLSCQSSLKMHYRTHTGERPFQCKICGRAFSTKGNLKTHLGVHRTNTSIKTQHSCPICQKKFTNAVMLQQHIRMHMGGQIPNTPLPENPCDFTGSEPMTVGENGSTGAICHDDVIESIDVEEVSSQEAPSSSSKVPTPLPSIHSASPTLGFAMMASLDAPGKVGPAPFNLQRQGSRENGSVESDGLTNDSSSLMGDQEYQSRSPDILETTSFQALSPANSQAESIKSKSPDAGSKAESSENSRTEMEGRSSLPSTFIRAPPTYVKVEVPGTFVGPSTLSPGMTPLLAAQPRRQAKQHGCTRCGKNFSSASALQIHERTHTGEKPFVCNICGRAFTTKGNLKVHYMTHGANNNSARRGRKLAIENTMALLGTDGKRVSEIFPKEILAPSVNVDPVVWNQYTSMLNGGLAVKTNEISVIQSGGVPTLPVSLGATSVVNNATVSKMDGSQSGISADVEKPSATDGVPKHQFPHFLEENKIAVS
Method: universal PBM
Molecule type: double-stranded DNA, one strand shown
Medium: in vitro
Tested at: 600 nM
Setting: 8-mer, flanks averaged, mean of replicates
Direction: higher = stronger binding
Oligonucleotide | E-score
GCGAGTAC | -0.0147
AGAACGCT | -0.0667
ACCGATAT | 0.0782
CGTGTCCA | -0.204
ACGCGAGG | -0.203
CTAAGGAC | -0.0209

Further values, each from its own experiment
Substance | target | test | system | setting | how to read | measurement | result
PhoQ, residues 284 288 289 292 302 303 SMMNNA | PhoP, residues 12 14 15 18 19 NQCAL (Escherichia coli, UniProt P23836) | Sort-seq, measured: YFP reporter | E. coli | PhoQ-PhoP variant library, together with: 10 µM Mg2+ | baseline: high Mg2+ state, higher = stronger signaling | fold induction | 16.3

For quick reference, copied from above (sample 1):
Oligonucleotide | relative binding energy [ln ratio]
GAGTCGTCTCGTCAGCACATAGGTTCCGTAGAGCACTCAGGTC | 0.125
GAGTCGTCTCGTCAGCACTGTGGTTCCGTAGAGCACTCAGGTC | 0.0845
